Published values from different studies.
Every numbered part comes from another study and shows a few of its results, in no order.

Block 1 — technique: protein-binding microarray; form: double-stranded DNA, one strand shown; medium: in vitro; tested at: 250 nM; setting: 60-bp whole probe; with: salmon DNA 0.4 mg/ml; reference: random background probes; reading: higher = stronger binding; shared flanks, not repeated: GCCTAGCAC … GTCTTGATTCGCTTGACGCTGCTG
Target: Interferon regulatory factor 5, full length, phosphomimetic (IRF5, Homo sapiens, UniProt Q13568-2, residues 1-514, K96S/S451D/S453D/S456D/S462D)
Sequence	log fluorescence
GACGGTTTCCGTTCCCTGACGTGCTAG	1.06 z-score
GACGGACTGGGGACTGGCGACGTGCTA	-1.15 z-score
TACGATCTCAGTCTCGAGACGTGCTAG	0.239 z-score
TCATAATTCTCTTTTCAACTGTGCTAG	1.36 z-score
TTAGGACTGGACACTGGGTGAGTGCTA	-0.444 z-score

Block 2 — technique: RNA Bind-n-Seq; form: RNA; medium: in vitro; tested at: 200 nM; setting: whole 134-nt RNA, ends assumed; with: 150 mM LiCl; reference: input library; reading: higher = stronger binding; library: 7-deaza-guanosine replaces G
Target: Ras GTPase-activating protein-binding protein 1, full length (G3BP1, Homo sapiens, UniProt Q13283)
Sequence of UniProt Q13283 (whole entry, looked up): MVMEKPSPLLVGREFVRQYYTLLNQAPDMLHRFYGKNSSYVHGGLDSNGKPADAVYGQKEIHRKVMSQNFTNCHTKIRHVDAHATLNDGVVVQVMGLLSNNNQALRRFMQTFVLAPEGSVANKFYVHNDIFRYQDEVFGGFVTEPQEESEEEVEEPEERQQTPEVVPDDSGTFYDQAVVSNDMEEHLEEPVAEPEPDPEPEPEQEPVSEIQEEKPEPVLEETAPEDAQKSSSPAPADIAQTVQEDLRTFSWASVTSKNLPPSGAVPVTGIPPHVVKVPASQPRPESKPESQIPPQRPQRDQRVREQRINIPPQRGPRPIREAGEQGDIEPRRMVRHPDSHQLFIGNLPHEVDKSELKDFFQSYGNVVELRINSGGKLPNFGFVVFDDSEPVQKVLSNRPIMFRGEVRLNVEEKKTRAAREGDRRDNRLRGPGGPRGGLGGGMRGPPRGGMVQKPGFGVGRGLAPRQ
Sequence	log2 enrichment
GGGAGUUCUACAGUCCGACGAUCAGUCCUGUGCUACACAUCGUAUGUACCGAAUCGGUUUUUGGGGUUUUUGGUUUUUGGGAAAGUAUUAUGUUACGCCGUUCGGAUCUGCACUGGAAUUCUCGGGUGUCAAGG	-0.226
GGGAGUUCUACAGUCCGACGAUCUCAAGUCCUGUGCUACACAUCGUAUGUACCGAAUCGGUGGUUUUUGGUUUUUGGAAAGUAUUAUGUUACGCCGUUCGGAUCUGCACUUCCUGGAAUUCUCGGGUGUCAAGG	-0.0945
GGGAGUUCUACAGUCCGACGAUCCUGUGCUACACAUCGUAUGUACCGAAUCGGGGAAAAAAAGGGGAAAAAAAGGGGAAAGGGGAAAGUAUUAUGUUACGCCGUUCGGAUCUGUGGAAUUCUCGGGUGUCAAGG	0.427
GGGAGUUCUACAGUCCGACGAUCCUCAAGUCCUGUGCUACACAUCGUAUGUACCGAAUCGGUGGGGUGGGGUGGGGAAAGUAUUAUGUUACGCCGUUCGGAUCUGCACUUCCAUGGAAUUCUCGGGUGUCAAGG	-0.0529
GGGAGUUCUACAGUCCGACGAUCUGGCCCUGGUGGCAUGCGGGGAGGAAGAGGUGGCCUCAUGGACCGUGGUGGUCCCGGUGGAAUGUUCAGAGGUGGCCGUGGUGGAGACAGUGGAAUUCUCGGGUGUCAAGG	0.195

Block 3 — technique: protein binding microarray; form: double-stranded DNA, one strand shown; medium: in vitro; tested at: not given; reference: not given; reading: higher = stronger binding
Target: Histone acetyltransferase KAT6A, winged helix 1, GST fusion (KAT6A, Homo sapiens, UniProt Q92794, residues 1-85)
Setting: 8-mer, flanks averaged, mean of 2 arrays, mostly near background
Residues (chain): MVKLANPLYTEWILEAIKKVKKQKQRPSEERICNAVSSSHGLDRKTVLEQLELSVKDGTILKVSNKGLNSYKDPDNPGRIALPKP
Sequence	E-score
TACTTCGA	0.0519
ACGGCTCC	0.354
ATTCCCAA	-0.271
ATTCAGGC	-0.0917
TATAAGGA	-0.0592

Mixed results
Molecule	target	assay	test system	setting	scale	measurement	result
PhoQ, residues 284 288 289 292 302 303 SLCLSL	PhoP, residues 12 14 15 18 19 HLGGL (Escherichia coli, UniProt P23836)	Sort-seq, measured: YFP reporter	E. coli	PhoQ-PhoP variant library, with: 10 µM Mg2+	reference: high Mg2+ state, higher = stronger signaling	fold induction	11.3

Some of these lines once more (mixed results):
Molecule	target	assay	test system	setting	scale	measurement	result
PhoQ, residues 284 288 289 292 302 303 SLCLSL	PhoP, residues 12 14 15 18 19 HLGGL (Escherichia coli, UniProt P23836)	Sort-seq, measured: YFP reporter	E. coli	PhoQ-PhoP variant library, with: 10 µM Mg2+	reference: high Mg2+ state, higher = stronger signaling	fold induction	11.3
